Experimental data gathered from unrelated publications.
Every numbered part comes from another study and shows a few of its results, in no order.

Study 1
Target: Fragile X messenger ribonucleoprotein 1, C-terminal low-complexity region (Fmr1, Mus musculus, UniProt P35922)
Method: RNA Bind-n-Seq
Form: RNA
Matrix: in vitro
Tested at: 200 nM
Setting: whole 134-nt RNA, ends assumed
With: 150 mM LiCl
Reference: input library
Direction: higher = stronger binding
All molecules: 7-deaza-guanosine replaces G
`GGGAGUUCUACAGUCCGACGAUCUCCUCAAGUCCUGUGCUACACAUCGUAUGUACCGAAUCGGGCGGCGGGCGGAAAGUAUUAUGUUACGCCGUUCGGAUCUGCACUUCCAGCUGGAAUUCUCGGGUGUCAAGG` gave a log2 enrichment of 0.293.
The log2 enrichment of `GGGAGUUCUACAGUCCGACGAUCAAGUCCUGUGCUACACAUCGUAUGUACCGAAUCGGGGUUUUGGUUUUGGUUUUGGGAAAGUAUUAUGUUACGCCGUUCGGAUCUGCACUUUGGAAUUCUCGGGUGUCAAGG` is reported as -2.42.
`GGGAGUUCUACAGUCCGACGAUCACCAUGCAGGUGGGCAUCUUUGGGAAGUGGGGCAAGGGGGGGAUAGGGAGGGGGGUAACACUUUGGGAACAGGUGGUCCCAGGUCGUUCCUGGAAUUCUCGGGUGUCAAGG` gave a log2 enrichment of 0.968.
The log2 enrichment of `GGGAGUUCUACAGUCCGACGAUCUGGCCCUGGUGGCAUGCGGGGAGGAAGAGGUGGCCUCAUGGAUCGUGGUGGUCCCGGUGCAAUGUUCAGAGGUGGCCGUGGUGGAGACAGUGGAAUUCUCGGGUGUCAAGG` is reported as -0.905.
For `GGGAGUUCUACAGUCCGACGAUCUGGGAGGUGGAUUUUGUUUAUUUUUUUCGCUCAUUUCCAGGGGUGGGAAUUUUUUUUUAAUAUGUGUCAUGAAUAAAGUUGUUUUUGAAAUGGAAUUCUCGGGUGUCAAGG`, the log2 enrichment was 0.434.
`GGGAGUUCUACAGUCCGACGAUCUCCUGUGCUACACAUCGUAUGUACCGAAUCGGGCCCCCGGGGCCCCCGGGCCCCCGGGGAAAGUAUUAUGUUACGCCGUUCGGAUCUGCAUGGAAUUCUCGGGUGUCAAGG` gave a log2 enrichment of -2.68.
With `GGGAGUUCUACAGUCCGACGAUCUAACUUUAGAGGAGGAUCUGAUGGAUAUGGCAGUGGACGUGGAUUUGGGGAUGGCGAUAAUGGGUAUGGAGGAGGACCUGGAGGUGGCAAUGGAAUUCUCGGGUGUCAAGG` the log2 enrichment was 1.
For `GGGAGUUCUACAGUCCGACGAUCUGGGAGGAGGAUUUUGUUUAUUUUUUUAGCUCAUUUCCAGGGGUGGGAAUUUUUUUUUAAUAUGUGUCAUGAAUAAAGUUGUUUUUGAAAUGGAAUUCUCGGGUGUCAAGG`, the log2 enrichment was 0.168.

Study 2
Target: RNA binding protein fox-1 homolog 2, RRM domain, GST-SBP tag (RBFOX2, Homo sapiens, UniProt O43251-10, residues 100-194)
Method: RNA Bind-n-Seq
Form: RNA
Matrix: in vitro
Tested at: 365 nM
Setting: natural RNA segment, single round, ends assumed
Reference: no-protein control
Direction: higher = stronger binding
Target sequence (chain): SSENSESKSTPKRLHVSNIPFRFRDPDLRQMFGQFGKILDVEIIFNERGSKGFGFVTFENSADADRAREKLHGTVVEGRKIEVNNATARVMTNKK
`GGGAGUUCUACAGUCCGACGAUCCCGCCUCUGGAGGAAGAUGAAGAGGAAGAGUGACAGCAGAGGGGGCGGGGUUCCUGGUGGGAAAGCUGGGUACCUGCUUCCUGUUUCCAGCCAGUUGCCUUUGCUCAGAAUGGAAUUCUCGGGUGCCAA` — result for “RBNS enrichment (R)”: 0.639.
`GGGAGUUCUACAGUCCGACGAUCUCAGGGUGGCUGUGAUACAGGUUCCCCAUGUCCUUGCCGUGGGUCAUCCUUGCUGUGGGUCAUCCUUGCUGUGGAGAUCCAUUCCCCACCUUUCCUGUGGCCCAACCUUUUGGAAUUCUCGGGUGCCAA`: “RBNS enrichment (R)” 0.23.
For `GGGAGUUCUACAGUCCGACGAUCGCCCAAAGGCGCAGCUCUGAGUUCAAAGCCAAAUGUCCCCACUACCCCAGGGAUCCCCCAGCUCCCCCAGCCCCUGGCUUCCUGACCCUGCGCCUCACCCUCAGACUGGUUGGAAUUCUCGGGUGCCAA`, “RBNS enrichment (R)” read 0.575.
`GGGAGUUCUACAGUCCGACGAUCGGUUGGAGUGGUGCGGGAGCAGGCUGCCGAGUGGAGGGUGCCAUCGAGGGCUCCGGAUCCCUUAUCCUACUUAGCAGUGUUGGUCUCUGGGGCUGGAAGCCGAGCGCAUGUGGAAUUCUCGGGUGCCAA`: “RBNS enrichment (R)” 4.95.
For `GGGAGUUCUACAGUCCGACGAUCCAGGUGGAGCUGACCCUCGUCUUUGUGGCAGCAAAACCAGGAUGCCUGGAGCUGUGGCCUGAGGGCCUGCUGGGGUCCCACUCACCCACUUAGGUCUAGUCGCUAGAUCCUGGAAUUCUCGGGUGCCAA`, “RBNS enrichment (R)” read 0.273.
Under “RBNS enrichment (R)”, `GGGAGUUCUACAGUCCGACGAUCUAAUCAAAGUGCCCUCCCAAAUCAGUUCUCCUUUUCGUAUGAACAGCAUCUCUACUUUUAAAGAGGAGUUGAGGAUCGAGAAGAUGACAGUGCAGCAGUGGGUGUGGCCUUGGAAUUCUCGGGUGCCAA` is recorded as 0.529.
`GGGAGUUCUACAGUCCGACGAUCGCAUGGUUGUUGCAUAUAGUAAAACUGAGAGUAAUUCACCUGUGAAUCUGCAUAUUAAUUACCUGAUGAUUAACUUAGAAAAGAGAUGGGAACUUAUUAUACAUGGACAUUGGAAUUCUCGGGUGCCAA`: “RBNS enrichment (R)” 6.39.
For `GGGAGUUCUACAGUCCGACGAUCUUUCUACUUCUCUACAGCAGCUGUCAGUGUUUUGUACUUGUAGACACCUAAUAAAUUGAUCAUUUGCAAAGAACACUGAUUGAAUUUGCUUCUCUUAUUUUUUAAGAGACUGGAAUUCUCGGGUGCCAA`, “RBNS enrichment (R)” read 0.344.
`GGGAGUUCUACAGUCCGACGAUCAUUUUACUUUGCUGCUCAGUUUUGAAAGUGUGUGAGCUACAUAGGUCUCCCUGUAGGAAAUGUGAAAAAAAGCACAAUAGAACCAGGCUAGGGGCUUUGUUCCUGCUUUUUGGAAUUCUCGGGUGCCAA`: “RBNS enrichment (R)” 1.06.

Study 3
Target: RING finger protein unkempt homolog, zinc fingers 1-6, SBP tag (UNK, Homo sapiens, UniProt Q9C0B0, residues 30-357)
Chain of UniProt Q9C0B0 (30-357, looked up): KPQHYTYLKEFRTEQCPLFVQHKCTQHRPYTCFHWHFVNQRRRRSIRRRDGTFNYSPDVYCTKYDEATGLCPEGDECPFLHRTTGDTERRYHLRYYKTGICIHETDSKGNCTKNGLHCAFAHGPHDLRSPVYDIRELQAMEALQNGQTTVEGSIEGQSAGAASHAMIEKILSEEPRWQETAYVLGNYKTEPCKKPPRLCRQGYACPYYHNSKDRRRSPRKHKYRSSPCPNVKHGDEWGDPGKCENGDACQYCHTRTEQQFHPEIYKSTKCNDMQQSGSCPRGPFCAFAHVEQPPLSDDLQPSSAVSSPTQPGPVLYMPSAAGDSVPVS
Method: RNA Bind-n-Seq
Form: RNA
Matrix: in vitro
Tested at: 100 nM
Setting: RNA with constant flanks, vertebrate orthologous sites, ends assumed
Reference: input RNA pool
Direction: higher = stronger binding
`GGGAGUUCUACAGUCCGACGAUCGCAUUUCAAGCUCACACCUGUAUCAACAUGGAAGUAGACCAGCUCUGCUGAUUUGAAAUUUAGACUUUUUAAUUAUGUACUGGGGACAGGUUUUUGUCGCUUUACAUUGCUUCCUAGUUUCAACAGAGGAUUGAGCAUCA` gave a bound/input enrichment of 3.19 ratio.
`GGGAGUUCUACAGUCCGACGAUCAUCCCUCAGUGACAGCAUGCCGUCUGUAGCAGAUUCCCACUCCAGUCAUUUUUCUGAAUUUAGCUGCUCAGACUUAGAAAGCAUGAGAACGUCCUGUAGUCACGGCUCCAGUGAUUGCCACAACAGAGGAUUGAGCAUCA` gave a bound/input enrichment of 0.351 ratio.
With `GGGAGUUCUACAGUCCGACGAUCGCAAUGAAAAAACAGCCCUUCUCCCAGCCCCCUUUUCACUAGGAGAUACAAACGUUACCAUAGAAGAGCAAUUAAACUCAAUAAAUUUAUCUUUUCAGGAUGAUCCAGACUCCAGUACCACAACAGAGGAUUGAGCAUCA` the bound/input enrichment was 1.92 ratio.
`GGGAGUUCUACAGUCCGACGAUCGUGUGUGGGGUAGCCUUGGCUCCUGCCUUGGCCUUGCCUCUCCUUCCUGUCACCUGCCCCUAGUUAUUUUUUUUUAACCACCACGUGAUUAUGGUCGGCGCUGCCUCCUCCCGACCUGCUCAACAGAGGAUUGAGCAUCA` gave a bound/input enrichment of 5.63 ratio.
With `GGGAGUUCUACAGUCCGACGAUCUAUAAGAACUCUUGCAGUCUUAGAUGUUAUAAAAAUAUGUAUACCAAUUGUAAGAGUUGUUAGCACAGAUUUUUUUCUUUUCUUUUUUUUAAGCACUUGUUUUGGGUACAAGGCAUUUCUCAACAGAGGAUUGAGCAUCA` the bound/input enrichment was 0.512 ratio.
For `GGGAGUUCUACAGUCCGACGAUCAGCACAGCAAGGAUUCAGAACUGGUUUUACAAAUGUCCCAAGCAGAUAUGGAACAAACACUCGUGGUCAACCUCGACCAUAAUAAACACCAUUAUUUAUUGUACUUAAGGGUAUUGACUUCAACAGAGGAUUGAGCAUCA`, the bound/input enrichment was 0.603 ratio.
`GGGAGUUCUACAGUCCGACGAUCCAUUAACACACAAAAUGUCUCCAGGGGGGUAUUAGAUUUGAUUUCUUACAUAUAAAACAAAUCAACCAACCAUUUUUAAAGUAGAAGAGGUUUUUAGAUAGUAAAUGAAAUAUUCUUUUUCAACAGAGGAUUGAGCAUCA` has a bound/input enrichment of 1.44 ratio.
With `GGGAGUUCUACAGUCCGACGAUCCUGGUCUUCCACGUAGGCUCAGCCUCAGAUCUAUAGGAUUUAUGACAAAUGUAUUCUAUCUAGUUAAGUUGAGUUUAUUAUUUUUUUAAUAAGCCUGUAAAUAAAGAUGGCAUCUUCUACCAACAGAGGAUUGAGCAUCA` the bound/input enrichment was 0.457 ratio.
The bound/input enrichment of `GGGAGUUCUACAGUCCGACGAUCCAGUUUGUAUGUACAUUAUUCAUAUUCCUCUCUGUUGUGUUUCGGGGGGAAAAGACAUUUUAGCCUUUUUUAAAAGUUACUGAUUUAAUUUCAUGUUAUUUGGUUGCAUGAAGUUGCCCUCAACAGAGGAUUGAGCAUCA` is reported as 1.41 ratio.
For `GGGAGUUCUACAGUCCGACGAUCUAAUGUAUUCAGAACCUUAUAGUAAAAGAGCCAAGCAGUAGCAUUGUUUUUUUGUAAAUGUAGAGUCAGACUUUGUUUCCUUACUCAAUUUUAAAAAUAAAAAUACCUCAGUGCUAUGUUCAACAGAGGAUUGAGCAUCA`, the bound/input enrichment was 0.525 ratio.
With `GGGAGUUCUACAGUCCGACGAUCUGAAAGUUUUAACCAAGAAUCUGAAGGUAGACAUACAGGACCGUGGUUAUCAUCCUCACUUAGAAAUAGAUGCACACCUUUGUUCUCUAGAAGGAGGAGAGAAGGUAGGGAUGAGUCUUCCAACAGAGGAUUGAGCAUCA` the bound/input enrichment was 1.02 ratio.

Study 4
Target: Histone acetyltransferase KAT6A, winged helix 2, GST fusion (KAT6A, Homo sapiens, UniProt Q92794, residues 85-181)
Method: protein binding microarray
Form: double-stranded DNA, one strand shown
Matrix: in vitro
Tested at: not given
Setting: 8-mer, flanks averaged, mean of 2 arrays, mostly near background
Reference: not given
Direction: higher = stronger binding
Construct (chain): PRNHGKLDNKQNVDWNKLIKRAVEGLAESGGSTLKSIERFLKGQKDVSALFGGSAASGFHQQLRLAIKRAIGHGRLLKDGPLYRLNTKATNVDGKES
`ACCGGCGC` gave an E-score of 0.0767.
With `CGTGAGGA` the E-score was -0.258.
`CAGAGAAG` gave an E-score of 0.0358.
`AACGTCGT` gave an E-score of -0.199.
The E-score of `AACCAGTA` is reported as -0.128.
With `CTTTGATC` the E-score was -0.0618.
The E-score of `AGTCAGAC` is reported as -0.139.
`AGAACTCC` has an E-score of -0.0979.
The E-score of `CCTACTGC` is reported as 0.0272.
For `GGCGAACA`, the E-score was 0.185.
For `GGATCAAA`, the E-score was -0.0059.
`AAGATGAT` gave an E-score of -0.141.
With `CAATGAAA` the E-score was -0.0427.
For `CCTACGCC`, the E-score was -0.0312.
The E-score of `CCACACAC` is reported as 0.0893.
With `ACAGTAAA` the E-score was -0.0247.
With `AGGTGCGC` the E-score was -0.00507.
`CGCACACC` has an E-score of 0.0244.
The E-score of `TTCAAAAA` is reported as 0.0971.
`AAACATAG` gave an E-score of -0.091.
`AGGAGGCC` has an E-score of -0.112.
`AGACAAAA` gave an E-score of -0.0495.
`ATTTAACG` has an E-score of 0.0474.
`CCTTTGGA` gave an E-score of 0.0669.

Some of these lines once more (study 3):
`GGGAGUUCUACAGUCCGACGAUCGCAUUUCAAGCUCACACCUGUAUCAACAUGGAAGUAGACCAGCUCUGCUGAUUUGAAAUUUAGACUUUUUAAUUAUGUACUGGGGACAGGUUUUUGUCGCUUUACAUUGCUUCCUAGUUUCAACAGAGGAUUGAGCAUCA` gave a bound/input enrichment of 3.19 ratio.
`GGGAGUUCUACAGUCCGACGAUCAUCCCUCAGUGACAGCAUGCCGUCUGUAGCAGAUUCCCACUCCAGUCAUUUUUCUGAAUUUAGCUGCUCAGACUUAGAAAGCAUGAGAACGUCCUGUAGUCACGGCUCCAGUGAUUGCCACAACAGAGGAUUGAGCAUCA` gave a bound/input enrichment of 0.351 ratio.
With `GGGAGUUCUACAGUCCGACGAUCGCAAUGAAAAAACAGCCCUUCUCCCAGCCCCCUUUUCACUAGGAGAUACAAACGUUACCAUAGAAGAGCAAUUAAACUCAAUAAAUUUAUCUUUUCAGGAUGAUCCAGACUCCAGUACCACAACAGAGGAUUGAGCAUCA` the bound/input enrichment was 1.92 ratio.
